Assay results pooled from the literature.
Each numbered part is a random draw from the data of one study; scales do not carry over between parts. “And” joins repeats or separate records; there may be more than shown.

Series 1 — cell line: mouse MPNST tumor cells; method: high-content immunofluorescence imaging; measured: nuclear SOX9; concentration: 10 µM; time: 12 h; notes: mean of 2 replicates; reference: DMSO control; direction: higher = more nuclear SOX9
For `O=C(O)c1ccccc1OP(=O)(O)O`, “nuclear SOX9 intensity” read 105 % of DMSO.
`Cc1nnc2c3ccccc3c(N[C@@H](C)[C@H](c3ccccc3)N(C)C)nn12` — result for “nuclear SOX9 intensity”: 114 % of DMSO and 105 % of DMSO.
`CC(=O)Nc1nnc(S(N)(=O)=O)s1`: “nuclear SOX9 intensity” 96.4 % of DMSO and 116 % of DMSO and 94 % of DMSO.
Under “nuclear SOX9 intensity”, `Cc1cc(-c2ccccc2)nnc1NCCN1CCOCC1` is recorded as 100 % of DMSO.
Under “nuclear SOX9 intensity”, `N#Cc1cc(F)c(C(=O)Nc2ccnc(NC(=O)[C@H]3C[C@H]3F)c2)c(Cl)c1` is recorded as 114 % of DMSO.
Under “nuclear SOX9 intensity”, `CC(C)NCC(O)c1ccc(O)c(O)c1` (stereo not drawn) is recorded as 118 % of DMSO.
Under “nuclear SOX9 intensity”, `CCN(CC)CCNC(=O)c1c(C)[nH]c(/C=C2\C(=O)Nc3ccc(F)cc32)c1C` is recorded as 234 % of DMSO.
For `CC1(C)O[C@@H]2[C@@H](CO[C@@]3(COS(N)(=O)=O)OC(C)(C)O[C@@H]23)O1`, “nuclear SOX9 intensity” read 95.7 % of DMSO and 91.9 % of DMSO and 86.3 % of DMSO.
For `c1cnc(N2CCN(Cc3ccc4c(c3)OCO4)CC2)nc1`, “nuclear SOX9 intensity” read 94.6 % of DMSO.
`CCCCC(=O)NCCc1c(Cc2ccccc2)[nH]c2ccccc12`: “nuclear SOX9 intensity” 106 % of DMSO.
Under “nuclear SOX9 intensity”, `O=C(Nc1c(-c2cccs2)nc2ccccn12)c1ccc(Cl)cc1` is recorded as 99.4 % of DMSO.

Series 2 — observed: enzyme activity; mode: inhibitor; concentration: 0.5 µM; reference: control
Target: Serine/threonine-protein kinase 3 (STK3, Homo sapiens, UniProt Q13188)
Chain of UniProt Q13188 (whole entry, looked up): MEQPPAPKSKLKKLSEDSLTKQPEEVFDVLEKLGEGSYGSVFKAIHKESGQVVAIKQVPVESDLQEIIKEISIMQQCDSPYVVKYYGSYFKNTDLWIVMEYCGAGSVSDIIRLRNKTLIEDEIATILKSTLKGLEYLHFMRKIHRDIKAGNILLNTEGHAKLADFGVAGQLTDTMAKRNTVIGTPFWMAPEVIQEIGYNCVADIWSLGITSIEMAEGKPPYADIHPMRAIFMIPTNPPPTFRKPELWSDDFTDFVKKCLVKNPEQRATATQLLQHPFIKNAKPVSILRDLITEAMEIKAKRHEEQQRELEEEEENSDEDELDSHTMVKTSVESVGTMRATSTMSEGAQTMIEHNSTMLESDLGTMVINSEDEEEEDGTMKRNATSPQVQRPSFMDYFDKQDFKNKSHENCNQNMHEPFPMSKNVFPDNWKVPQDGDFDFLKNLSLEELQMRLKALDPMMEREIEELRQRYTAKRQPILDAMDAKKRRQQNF
For `CC#CC(=O)Nc1cc2c(Nc3ccc(F)c(Cl)c3)ncnc2cn1`, the remaining activity was 106%.
With `Nc1nc(Nc2ccc(S(N)(=O)=O)cc2)nn1C(=O)c1c(F)cccc1F` the remaining activity was 34.3%.
`COc1ccc(S(=O)(=O)N(CCO)c2ccccc2CN(C)CC=Cc2ccc(Cl)cc2)cc1` gave a remaining activity of 101%.
The remaining activity of `O=S(=O)(NCCNC/C=C/c1ccc(Br)cc1)c1cccc2cnccc12` is reported as 65.6%.
With `N#CC(=C(N)Sc1ccc(N)cc1)c1ccccc1C(F)(F)F` the remaining activity was 125%.
With `Fc1ccc(-c2nc3n(c2-c2ccncc2)CCS3)cc1` the remaining activity was 111%.
`COc1cc(Nc2c(C#N)cnc3cc(OCCCN4CCN(C)CC4)c(OC)cc23)c(Cl)cc1Cl` gave a remaining activity of 13.9%.
The remaining activity of `CC(=O)c1ccc(N2CCOCC2)cc1O` is reported as 98.9%.
The remaining activity of `O=C1Cc2c([nH]c3ccc([N+](=O)[O-])cc23)-c2ccccc2N1` is reported as 70.3%.
`CC(C)(C)n1nc(Cc2cccc3ccccc23)c2c(N)ncnc21` gave a remaining activity of 82%.
`Cc1ccc(NC2=CC(=O)c3sc(C)nc3C2=O)cc1` gave a remaining activity of 105%.
For `O=C1NC(=O)C(c2c[nH]c3ccccc23)=C1c1c[nH]c2ccccc12`, the remaining activity was 64.7%.
`CCCC(=O)Oc1ccc2[nH]c(C(=O)c3cc4ccccc4[nH]3)cc2c1` gave a remaining activity of 87%.
With `NC(=O)c1ccc(N(C(N)=O)c2c(F)cccc2F)nc1-c1ccc(F)cc1F` the remaining activity was 94.1%.
For `CCc1[nH]c(-c2ccc(OC)cc2)nc1-c1ccncc1`, the remaining activity was 104%.
`CSc1nc(-c2ccnc(N[C@@H](C)c3ccccc3)c2)c(-c2ccc(F)cc2)[nH]1` (racemic) gave a remaining activity of 88.8%.
For `Oc1ccc(Nc2nc(-c3ccc(Cl)cc3)cs2)cc1`, the remaining activity was 114%.
`Nc1ncnc2c1cnn2-c1ccccc1` gave a remaining activity of 92.3%.
The remaining activity of `Nc1nccc(-c2c(-c3ccc(F)cc3)ncn2C2CCNCC2)n1` is reported as 103%.
For `CC[n+]1c(/C=C/N(C)c2ccccc2)n(-c2ccccc2)c2ccc(-c3nc4ccccc4s3)cc21`, the remaining activity was 98.9%.
`Cc1cncc2cccc(S(=O)(=O)N3CCCN(C(=O)CN)C[C@@H]3C)c12` has a remaining activity of 104%.
`Cc1cc(Nc2nc(-c3ccccc3)nc3ccccc23)n[nH]1` has a remaining activity of 58.5%.

Series 3 — matrix: plasma; route: oral
SMILES: COc1ccc(-c2c(Nc3ccccn3)[nH]c3c(C4=CCCCC4)c(-c4ccccc4)nn3c2=O)cc1
LC-MS/MS; human; 50 mg once daily, 24 h, cycle 1 — “plasma concentration, median”: 1150 ng/mL.
The “plasma concentration, median” was 10700 ng/mL (LC-MS/MS; human; 200 mg twice daily, 0.5 h).
The “plasma concentration, median” was 3230 ng/mL (human patients; 150 mg once daily, 0 h, cycle 1).
It gave 8630 ng/mL for “plasma concentration, median” (human patients; 200 mg once daily, 2 h, cycle 1).
human patients; 400 mg once daily, 3 h, cycle 1 — “plasma concentration, median”: 2730 ng/mL.
For human patients; 100 mg once daily, 0 h, cycle 1: “plasma concentration, median” read 5290 ng/mL.
It gave 6030 ng/mL for “plasma concentration, median” (human patients; 200 mg once daily, 8 h, cycle 1).
For human patients; 400 mg once daily, 2 h, cycle 1: “plasma concentration, median” read 2610 ng/mL.
human patients; 100 mg once daily, 24 h, cycle 1 — “plasma concentration, median”: 4900 ng/mL.
For human patients; 100 mg once daily, 4 h, cycle 1: “plasma concentration, median” read 4960 ng/mL.
For LC-MS/MS; human; 200 mg twice daily, 4 h: “plasma concentration, median” read 11300 ng/mL.

Mixed results
`Cn1cncc1[C@@](O)(COc1ccc(C#N)cc1-c1ccc(OC(F)(F)F)cc1)c1ccc(C#N)cc1` — result for “total cell count”: 789 (HEK293T; high-content imaging; 10 µM, 24 h).
